Published values from different studies.
A part holds a random share of what one study measured. Positions count from the first letter of the parent shown.
Sequence of UniProt O15294 (whole entry, looked up): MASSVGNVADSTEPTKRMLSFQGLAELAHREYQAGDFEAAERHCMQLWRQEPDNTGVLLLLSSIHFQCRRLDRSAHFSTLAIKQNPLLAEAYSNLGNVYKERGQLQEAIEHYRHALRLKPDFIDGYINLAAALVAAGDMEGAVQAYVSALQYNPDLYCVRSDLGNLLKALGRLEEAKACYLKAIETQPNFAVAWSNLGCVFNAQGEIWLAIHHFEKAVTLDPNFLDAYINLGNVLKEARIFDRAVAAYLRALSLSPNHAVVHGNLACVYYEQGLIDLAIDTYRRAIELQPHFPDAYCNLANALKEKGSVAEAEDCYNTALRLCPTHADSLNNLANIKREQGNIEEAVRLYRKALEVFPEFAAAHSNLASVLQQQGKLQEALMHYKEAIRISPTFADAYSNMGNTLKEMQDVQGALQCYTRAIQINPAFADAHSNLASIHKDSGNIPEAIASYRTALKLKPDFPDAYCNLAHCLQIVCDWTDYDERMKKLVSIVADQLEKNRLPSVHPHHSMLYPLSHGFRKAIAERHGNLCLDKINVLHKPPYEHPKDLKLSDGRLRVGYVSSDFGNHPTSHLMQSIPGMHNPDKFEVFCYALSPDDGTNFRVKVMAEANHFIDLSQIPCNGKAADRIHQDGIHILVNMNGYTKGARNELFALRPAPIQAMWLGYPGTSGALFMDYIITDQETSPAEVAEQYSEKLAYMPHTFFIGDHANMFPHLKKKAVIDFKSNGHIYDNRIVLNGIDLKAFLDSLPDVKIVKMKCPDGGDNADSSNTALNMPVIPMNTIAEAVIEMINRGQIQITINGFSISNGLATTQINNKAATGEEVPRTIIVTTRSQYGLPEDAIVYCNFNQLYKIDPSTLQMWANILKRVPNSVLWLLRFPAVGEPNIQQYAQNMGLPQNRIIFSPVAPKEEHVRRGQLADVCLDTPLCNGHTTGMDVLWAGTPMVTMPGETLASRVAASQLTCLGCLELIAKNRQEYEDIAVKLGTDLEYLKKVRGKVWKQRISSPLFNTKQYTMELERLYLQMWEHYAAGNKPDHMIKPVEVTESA

Sample 1 — method: protein binding microarray; molecule type: double-stranded DNA, one strand shown; medium: in vitro; concentration: not given; baseline: not given; reading: higher = stronger binding
Target: Histone acetyltransferase KAT6A, winged helix 1, GST fusion (KAT6A, Homo sapiens, UniProt Q92794, residues 1-85)
Notes: 8-mer, flanks averaged, mean of 2 arrays, mostly near background
Target sequence (chain): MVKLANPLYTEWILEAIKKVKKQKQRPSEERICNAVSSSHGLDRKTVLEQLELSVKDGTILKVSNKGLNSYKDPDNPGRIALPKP
Oligonucleotide | E-score
AACTGCGA | 0.152
GTATTGAA | -0.106
CTGTAGTA | -0.135
ACTCGCAT | -0.000525
GCAATTCC | -0.00888
CTGAATAC | -0.0654
CGAGATAG | -0.0709
TCTGGAAA | -0.0725

Sample 2 — target: CCNE1, cyclin fold, Cln2 fusion (human); method: yeast growth competition, sequencing; medium: yeast; notes: weak parent motif; baseline: not given; reading: higher = stronger binding
Parent: RB1 docking peptide (human); PKPLKKLRFDIEG
Substitution | normalised enrichment score
PKPLKKIRFDIEG [L7I] | 0.438
PKQLKKLRFDIEG [P3Q] | -0.00153
PKPLKKLRQDIEG [F9Q] | 0.827
PKPLKKLGFDIEG [R8G] | 0.116
PKSLKKLRFDIEG [P3S] | 1.08
PKPLKKLRFVIEG [D10V] | 0.17
PFPLKKLRFDIEG [K2F] | 0.888
PKPLKKLRFDIEW [G13W] | 0.0219

Mixed results
Substance | target | test | system | conditions | how to read | endpoint | value
HQMHAHQLHRPSTKF | OGT (Homo sapiens, UniProt O15294) | binding, phage display NGS | peptide | concentration not given | baseline: input library | enrichment fold change | 13.8
PhoQ, residues 284 288 289 292 302 303 ASSHFY | PhoP, residues 12 14 15 18 19 SEGLL (Escherichia coli, UniProt P23836) | Sort-seq, refers to: YFP reporter | E. coli | PhoQ-PhoP variant library, with: 10 µM Mg2+ | baseline: high Mg2+ state, higher = stronger signaling | fold induction | 11.9
